Results from different studies.
Parts stem from different laboratories: compare values within a part only.

Series 1
Target: RNA binding protein fox-1 homolog 2, RRM domain, GST-SBP tag (RBFOX2, Homo sapiens, UniProt O43251-10, residues 100-194)
Method: RNA Bind-n-Seq
Molecule type: RNA
Matrix: in vitro
Tested at: 365 nM
Notes: natural RNA segment, single round, ends assumed
Relative to: no-protein control
Reading: higher = stronger binding
Measurement: RBNS enrichment (R)
Shared flanks, not repeated: GGGAGUUCUACAGUCCGACGAUC … UGGAAUUCUCGGGUGCCAA
GGUGGCGCCUGCCCUGAGGCUGCCCUGCGAUGGCCUGGGUGGGAGAGCUGGGUCACCGGUGCCGAUGCUCUGGCCCUCCCCAAUACGCUGCUUCGUCCCACUGCACCGCC: 0.374
GAAGCUGCCCGUUGCUGCUACUGCACCUCACCACCAACUCCCUCAUGGACAGACAGAUCCCUGAUGUCUGUCACUAUAGACACACGUGUUGUACAUGUGGCCCUUAACAC: 0.487
UAUCUUCCAUCGGUGGCCAAGGGAGUGUGGGUGGCUGUUCCCAGCACAUAGUAGGUGCUUGGUAAAAUAUCUGUGGUACUGAAUGUUGAGCACAGGUGCCCAAGUCAGAG: 2.87
GAUUGGGAAGAAAAGAAAUGGAUUUUUAUACACAUACACCAAAAAUAUUUUAAUGAUUCACUUGCCAAAUUACUUCCUGGGUGGUAUCAUUUCCUUAUCUCUCUGAUUAU: 0.414
CCUGCUGGGCUCUGGGCAGCCCUGCAGUUCCCUCUCUGGCUCUUCCACUCUCUGUGGGGUCCUGCGUACCUACAGGGUGGCCUGAAAACAGACUCCACACGUGGAAACAA: 0.451
AUGCUUCCAACCCAAAGGCCUUUCAUCUCAAUAUCUGUCAAACUUGAAUAAUGUCUUCUCUUUAAUAUUCACAUAAGGCAGCCUAUUAACUGUGUCUUAGCAAUGUUGUA: 0.574
AAGGGAGAGCUAGAGCCACUCACUGUCAUUCUGCUCUGACCUUGAAGGGGGCGGUGUUGGCCUGGCUUCUGGAAUGGACUGAGUCCAUCGUGGAAAGGGCUGGGGGCAGG: 0.482
AACAGUGCUUACGUUGUCUCCAUGUGUACGGGGCCUGUGUGGAUGGUCGUAUGUUUUGCACAUUUUGUAGUUGUUGGUGUGCUUCGCCGCACACAAAAAAAGAAGACUUU: 0.483

Series 2
Target: Fragile X messenger ribonucleoprotein 1, C-terminal low-complexity region (Fmr1, Mus musculus, UniProt P35922)
Method: RNA Bind-n-Seq
Molecule type: RNA
Matrix: in vitro
Tested at: 200 nM
Notes: whole 134-nt RNA, ends assumed
Added: 150 mM KCl
Relative to: input library
Reading: higher = stronger binding
Measurement: log2 enrichment
Shared flanks, not repeated: GGGAGUUCUACAGUCCGACGAUC … UGGAAUUCUCGGGUGUCAAGG
UCAAGUCCUGUGCUACACAUCGUAUGUACCGAAUCGGAAAGGUUUUUGGAAAGGAAAGUAUUAUGUUACGCCGUUCGGAUCUGCACUUCC: -0.829
AAGUCCUGUGCUACACAUCGUAUGUACCGAAUCGGAAAGGUUUUUGGAAAAAAAGGAAAGUAUUAUGUUACGCCGUUCGGAUCUGCACUU: -1.24
AGCAUGCAGGUGGGCAUCUUUGGGAAGUGGGGCAAGGGGGGGAUAGGGAGGGGGGUAACACUUUGGGAACAGGUGGUCCCAGGUCGUUUC: 0.728
ACCAUGCAGGUGGGCAUCUUAGGGAAGUGGGGCAAGGGGGGGAUAGGGAGGGGGGUAACACUUUGGGAACAGGUGGUCCCAGGUCGUUUC: 1.09
GCAGGAAGUAAAAACAAAUGGAAAUGCUUCGGACAGUGGCAGGGGUGGGGGUUGCUAAGGAAAGGGUGGGAUGGGAGUGGGUAAAGAGUU: 0.111
AGUCCUGUGCUACACAUCGUAUGUACCGAAUCGGGUUUUUGGUUUUUGGGUUUUUGGGAAAGUAUUAUGUUACGCCGUUCGGAUCUGCAC: -0.471
UCCUGUGCUACACAUCGUAUGUACCGAAUCAAAUUUAAAUUUUUUUAAACCCCCCCAAAAAAGUAUUAUGUUACGCCGUUCGGAUCUGCA: 0.322
UCCUGUGCUACACAUCGUAUGUACCGAAUCGGCCCCCCGGGGCCCCCCGGGCCCCCCGGAAAGUAUUAUGUUACGCCGUUCGGAUCUGCA: -0.58
GGUGGACUAUGGUGCAACAGCAGAAGAGCUGGAAGCUCACUUUCAUGGCUGUGGUUCAGUCAACCGUGUUACCAUACUGUGUGACAAAUU: -0.884

Series 3
Target: Prothrombin, mature alpha-thrombin (F2, Homo sapiens, UniProt P00734)
Method: aptamer microarray, sandwich
Molecule type: DNA with 2'F-ANA
Matrix: in vitro
Tested at: 200 nM
Notes: whole 15-mer aptamer, many near background
Added: Cy3 exosite-II aptamer, 400 nM
Reading: higher = stronger binding
Measurement: mean fluorescence intensity
Strand: GGTTGGTGTGGTTGG
2'F-ANA at 2 4 5 8 9 12 13 14 15: 45.6 a.u.
2'F-ANA at 3 4 5 7 8 10 12 14: 48.6 a.u.
2'F-ANA at 1 4 5 8 12 15: 136 a.u.
2'F-ANA at 1 4 6 7 8 9 10 11 14 15: 46.1 a.u.
2'F-ANA at 3 6 8 10 12 15: 580 a.u.
2'F-ANA at 3 4 6 7 9 14 15: 240 a.u.
2'F-ANA at 1 2 8 9 13 14: 50.1 a.u.
2'F-ANA at 2 6 9 10 11 12 14 15: 79.2 a.u.
2'F-ANA at 1 4 5 6 7 9 13 15: 54.3 a.u.
2'F-ANA at 1 2 3 4 7 8 9 11 13: 145 a.u.
2'F-ANA at 3 4 5 6 9 10 11 12 14: 48.7 a.u.
2'F-ANA at 2 3 4 6 7 8 9 10 12 15: 260 a.u.
2'F-ANA at 2 3 4 5 9 10 13 14 15: 56.2 a.u.
2'F-ANA at 1 4 5 6 9 10 12 14 15: 54.8 a.u.
2'F-ANA at 1 2 4 5 10 12 13 14 15: 46.3 a.u.
2'F-ANA at 1 2 4 5 6 7: 54.8 a.u.
2'F-ANA at 1 5 7 8 9 14 15: 44.3 a.u.
2'F-ANA at 4 6 11 13 14: 76.6 a.u.
2'F-ANA at 2 3 4 5 6 7 8 9 10 13 14: 50.4 a.u.
2'F-ANA at 1 3 4 5 6 7 8 9 10 11 13 14 15: 54 a.u.

Series 4
Target: Histone acetyltransferase KAT6A, winged helix 2, GST fusion (KAT6A, Homo sapiens, UniProt Q92794, residues 85-181)
Method: protein binding microarray
Molecule type: double-stranded DNA, one strand shown
Matrix: in vitro
Tested at: not given
Notes: 8-mer, flanks averaged, mean of 2 arrays, mostly near background
Relative to: not given
Reading: higher = stronger binding
Measurement: E-score
Residues (chain): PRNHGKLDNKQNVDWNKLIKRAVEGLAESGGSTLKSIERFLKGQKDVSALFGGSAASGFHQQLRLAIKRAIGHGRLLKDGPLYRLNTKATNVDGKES
TCTCACAA: -0.00724
ACTTGTAA: -0.214
CGTTAGAC: -0.144
AGAAATCG: -0.0187
CGGTGATA: -0.00668
GGGCAAAA: 0.107
CATCAGAG: 0.0154
AATTTGAA: -0.0236
ACGCGGCC: 0.027
GCATCCGA: 0.11
CAGGTAAA: 0.0746
CTTGCCGC: 0.144
AAGGTTCT: -8.5e-05
GGCACCAC: 0.0608
ATAATAAG: -0.109
AGCGATGG: 0.00897
GATCGCCC: -0.0482
ATACTGTC: 0.0314

Excerpt of the above (series 3):
2'F-ANA at 1 4 5 6 9 10 12 14 15: 54.8 a.u.
2'F-ANA at 1 4 6 7 8 9 10 11 14 15: 46.1 a.u.
2'F-ANA at 1 2 3 4 7 8 9 11 13: 145 a.u.
2'F-ANA at 1 2 4 5 6 7: 54.8 a.u.
2'F-ANA at 3 4 5 7 8 10 12 14: 48.6 a.u.
2'F-ANA at 1 3 4 5 6 7 8 9 10 11 13 14 15: 54 a.u.
2'F-ANA at 3 4 6 7 9 14 15: 240 a.u.
